Results from different studies.
Protocols differ between the studies behind these lines. ± marks the error that the study gave.

SMILES | assay | system | conditions | half-life [h]
Cc1cc(NC(=O)c2cccc(NC(=O)/C=C/CN(C)C)c2)ccc1Nc1nccc(-c2cccnc2)n1 | – | rat Wistar male, primary hepatocytes | 1 µM | 3.15
CCc1cc(C(=O)NC)c2nccc(N3CCc4c(cc(Cn5ccnc5)cc4-c4cn(C)nc4C(F)(F)F)C3=O)c2c1 | – | Sprague Dawley rat, male, plasma | oral, 100 mg/kg once daily, 7 days, toxicokinetic satellite group | 2.1
CNC(=O)c1ccc(N2C(=S)N(c3ccc(C#N)c(C(F)(F)F)c3)C(=O)C2(C)C)cc1F | HPLC-MS/MS, item: free compound | Sprague-Dawley rats, plasma | 1.0 mg/kg | ~42.5
Cc1cccc(CNC(=O)c2cn(CCNC(=O)c3ccccc3S)c3cc4c(cc3c2=O)OC(F)(F)O4)n1 | – | Sprague-Dawley rat, male, plasma | intravenous, 5 mg/kg of parent drug | 0.84 ± 0.41
OCC1=C[C@@H](O)[C@@H]2C=CO[C@@H](O[C@@H]3O[C@H](CO)[C@@H](O)[C@H](O)[C@H]3O)[C@H]12 | – | rat, plasma | oral, 500 mg/kg Eu + 217 mg/kg Pc extract, dosed as combined Eu and Pc extracts | 1.47 ± 0.79
O=C(Nc1ccc(OC(F)(F)Cl)cc1)c1cnc(N2CC[C@@H](O)C2)c(-c2ccn[nH]2)c1 | – | Sprague-Dawley rat, male, plasma | oral, 8 mg/kg | 3.21 ± 0.54
Cn1nc2c(=O)n(C3CC3)ncc2c1[C@](N)(c1ccc(C(F)(F)F)c(Cl)c1)C1CC1 | – | Sprague-Dawley rat, male | intravenous, 1 mg/kg | 15 ± 1.2
Oc1ccc(/C=C/c2cc(O)cc(O)c2)cc1 | – | male Wistar rats, plasma | oral, 10 mg/kg | 6.7 ± 1.2
Cc1cccc(CNC(=O)c2cn(CCNC(=O)c3ccccc3Sc3c([N+](=O)[O-])ncn3C)c3cc4c(cc3c2=O)OC(F)(F)O4)n1 | – | Sprague-Dawley rat, male, whole blood | intramuscular, 10 mg/kg | 10.4
Cc1nn(C2CC2)c(=O)c2nn(C)c(Cc3ccc(C(F)(F)F)c(C#N)c3)c12 | – | Sprague-Dawley rat, male | intravenous, 1 mg/kg | 14 ± 1.4
C1=C/COCc2cc(ccc2OCCN2CCCC2)Nc2nccc(n2)-c2cccc(c2)COC/1 | LC-MS/MS | Sprague-Dawley rat, male, plasma | oral, 36 mg/kg, added: isavuconazole 20 mg/kg oral | 14.4 ± 12.8
O=C(O)C1=CO[C@@H](O[C@@H]2O[C@H](CO)[C@@H](O)[C@H](O)[C@H]2O)[C@@H]2C(CO)=CC[C@H]12 | – | rat, plasma | oral, 500 mg/kg Eu extract, dosed as Eu extract | 2.27 ± 1.14
CC(C)[C@@H](CN1CC[C@@](C)(c2cccc(O)c2)[C@@H](C)C1)NC(=O)[C@H]1Cc2ccc(O)cc2CN1 | – | Sprague-Dawley rat, brain | intraperitoneal, 3 mg/kg | 68.4
CSc1ccccc1C(=O)NCCn1cc(C(=O)NCc2cccc(C)n2)c(=O)c2cc3c(cc21)OC(F)(F)O3 | – | Sprague-Dawley rat, male, whole blood | intravenous, 5 mg/kg of parent compound | 0.36 ± 0.01
N=C(N)NCCNC(=O)C1(Nc2ccccc2)CCN(Cc2ccccc2)CC1 | – | male Sprague-Dawley rats, plasma | intravenous, 2.5 mg/kg | 0.9 ± 0.1

Excerpt of the above:
SMILES | assay | system | conditions | half-life [h]
Cc1cccc(CNC(=O)c2cn(CCNC(=O)c3ccccc3S)c3cc4c(cc3c2=O)OC(F)(F)O4)n1 | – | Sprague-Dawley rat, male, plasma | intravenous, 5 mg/kg of parent drug | 0.84 ± 0.41
